Assay results collected from several papers.
Lines come from different studies, so protocols differ.
CDK4 with cyclin D3: Cyclin-dependent kinase 4, with cyclin D3 (CDK4, Homo sapiens, UniProt P11802)
CDK4: Cyclin-dependent kinase 4 (CDK4, Homo sapiens, UniProt P11802)

C=CC(=O)N1CCCC(n2c(=O)c3ncccc3n(Cc3ccc(Oc4ccccc4)cc3)c2=O)C1 (centres unmarked)  remaining binding (CDK4 with cyclin D3; cell-free assay, competition with immobilised ligand; 1 µM): 89%
COc1cc(Nc2nccc(-c3cnn4nc(OC)ccc34)n2)cc(C(F)(F)F)c1  remaining binding (CDK4 with cyclin D3; binding, competition with immobilised ligand; 1 µM): 92%
CNC(=O)C1CCN(c2cc(C)c(F)cc2NC(=O)c2ccc(-c3cc(O)ccc3C)c(C)c2)CC1  remaining binding (CDK4; binding, competition with immobilised ligand; 1 µM): 100%
Nc1ncc2c(n1)-c1c([nH]c3ccc(C4=CCOCC4)cc13)CCC2  remaining binding (CDK4 with cyclin D3; binding, competition with immobilised ligand; 1 µM): 76%
CC(C)=CC1OC(C)(C)C2C=C3C(=O)C(Cl)=CC(O)C3C3C(O)C4OC4C(=O)C132 (centres unmarked)  remaining binding (CDK4; cell-free assay, competition with immobilised ligand; 10 µM): 100%
Cc1cnc2nc1Nc1cccc(c1)COC/C=C/COCc1cc(ccc1OCCN1CCOCC1)N2  remaining binding (CDK4 with cyclin D3; binding; 0.1 µM): 89%
COc1c(Cl)cccc1Nc1c(-c2ccncc2C#C[C@@]2(C)CCCN2C(=O)/C=C/CN(C)C)[nH]c2c1C(=O)NCC2  remaining binding (CDK4; binding, competition with immobilised ligand; 3 µM): 100%
C[C@]1(O)CCCN(c2nc(Nc3ccc(S(=O)(=O)N[C@H]4CC[C@H](CN5CCN(c6ccc(C7CCC(=O)NC7=O)cc6F)CC5)CC4)cc3)ncc2C(F)(F)F)C1 (some centres unmarked)  remaining binding (Cyclin-dependent kinase 4, with cyclin D1 (CDK4, Homo sapiens, UniProt P11802); binding, competition with immobilised ligand; 1 µM): 63%

A few entries again:
CC(C)=CC1OC(C)(C)C2C=C3C(=O)C(Cl)=CC(O)C3C3C(O)C4OC4C(=O)C132 (centres unmarked)  remaining binding (CDK4; cell-free assay, competition with immobilised ligand; 10 µM): 100%
